Experimental data of several laboratories.
Every numbered part comes from another study and shows a few of its results, in no order. Substitutions count along the parent as printed.

Set 1
Target: Sal-like protein 4, full length isoform A (SALL4, Homo sapiens, UniProt Q9UJQ4, residues 1-1053)
Chain of UniProt Q9UJQ4 (whole entry, looked up): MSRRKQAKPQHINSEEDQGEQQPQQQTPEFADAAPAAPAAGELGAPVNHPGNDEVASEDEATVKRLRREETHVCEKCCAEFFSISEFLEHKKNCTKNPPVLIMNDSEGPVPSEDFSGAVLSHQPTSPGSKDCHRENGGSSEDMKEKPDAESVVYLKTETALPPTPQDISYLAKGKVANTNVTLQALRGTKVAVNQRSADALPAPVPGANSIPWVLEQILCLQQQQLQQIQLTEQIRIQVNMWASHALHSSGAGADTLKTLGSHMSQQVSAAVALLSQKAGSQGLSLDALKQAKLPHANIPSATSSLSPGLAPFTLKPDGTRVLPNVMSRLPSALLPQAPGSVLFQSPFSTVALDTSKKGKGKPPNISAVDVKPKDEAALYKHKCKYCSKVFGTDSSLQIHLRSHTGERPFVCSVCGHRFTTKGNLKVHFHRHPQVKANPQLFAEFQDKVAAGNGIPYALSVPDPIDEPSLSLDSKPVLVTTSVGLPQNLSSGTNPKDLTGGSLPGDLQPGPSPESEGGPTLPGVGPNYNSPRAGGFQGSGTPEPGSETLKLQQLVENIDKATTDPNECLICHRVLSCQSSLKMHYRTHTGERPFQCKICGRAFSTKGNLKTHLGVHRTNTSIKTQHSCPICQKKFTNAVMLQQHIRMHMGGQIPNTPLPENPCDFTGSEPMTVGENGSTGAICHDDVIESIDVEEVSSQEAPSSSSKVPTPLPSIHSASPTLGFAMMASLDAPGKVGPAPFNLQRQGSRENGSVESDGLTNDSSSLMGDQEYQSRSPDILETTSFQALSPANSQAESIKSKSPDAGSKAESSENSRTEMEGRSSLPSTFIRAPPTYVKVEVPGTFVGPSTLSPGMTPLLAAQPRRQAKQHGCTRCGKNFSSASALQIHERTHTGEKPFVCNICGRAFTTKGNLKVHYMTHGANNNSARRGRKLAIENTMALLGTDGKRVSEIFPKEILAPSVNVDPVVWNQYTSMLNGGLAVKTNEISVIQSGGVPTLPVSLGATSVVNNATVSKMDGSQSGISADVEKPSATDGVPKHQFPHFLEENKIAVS
Method: universal PBM
Form: double-stranded DNA, one strand shown
Matrix: in vitro
Tested at: 600 nM
Notes: 8-mer, flanks averaged, mean of replicates
Direction: higher = stronger binding
With `CCGTCCCG` the E-score was -0.277.
`CGGAACTC` has an E-score of -0.218.
The E-score of `AGTCTCCG` is reported as -0.136.
For `CCTTCCGA`, the E-score was 0.0285.
`ATAGAGCG` gave an E-score of 0.0387.
For `GCGGACAA`, the E-score was -0.0144.
For `GACTTGTA`, the E-score was 0.247.
With `GTGGACGA` the E-score was -0.149.
With `ACAGCGAT` the E-score was -0.162.
With `AAATTTTC` the E-score was 0.281.
`ACTCGTTA` gave an E-score of 0.118.
The E-score of `GCTGTAGA` is reported as -0.0111.
`ACGAACCA` has an E-score of 0.0784.
`ACTATTGG` has an E-score of 0.0501.
The E-score of `ACAAGTCG` is reported as -0.0724.
`CGTAAGAG` gave an E-score of -0.021.
`GACGTCAA` has an E-score of -0.0563.
`CGGGGAAA` has an E-score of -0.1.

Set 2
Target: Prothrombin, mature alpha-thrombin (F2, Homo sapiens, UniProt P00734)
Method: aptamer microarray, sandwich
Form: DNA with 2'F-ANA
Matrix: in vitro
Tested at: 200 nM
Notes: whole 15-mer aptamer, many near background
Added: Cy3 exosite-II aptamer, 400 nM
Direction: higher = stronger binding
Oligonucleotide: GGTTGGTGTGGTTGG
`2'F-ANA at 1 3 4 5 11 15` — result for “mean fluorescence intensity”: 49.5 a.u.
`2'F-ANA at 2 4 6 7 9 11 12 13` — result for “mean fluorescence intensity”: 254 a.u.
For `2'F-ANA at 2 4 5 6 7 10 11 12 14`, “mean fluorescence intensity” read 45.1 a.u.
`2'F-ANA at 2 3 4 5 6 8 12 15`: “mean fluorescence intensity” 217 a.u.
Under “mean fluorescence intensity”, `2'F-ANA at 1 2 3 4 5 6 9 10 11 13` is recorded as 120 a.u.
`2'F-ANA at 1 9 12 13` — result for “mean fluorescence intensity”: 295 a.u.
`2'F-ANA at 1 2 5 9 11 12 13 15`: “mean fluorescence intensity” 67.1 a.u.
Under “mean fluorescence intensity”, `2'F-ANA at 1 5 9 12 13 15` is recorded as 72.1 a.u.
`2'F-ANA at 4 6 12 15` — result for “mean fluorescence intensity”: 481 a.u.
For `2'F-ANA at 1 2 5 6 8 10 11 15`, “mean fluorescence intensity” read 54 a.u.
`2'F-ANA at 1 5 6 8 9 14 15`: “mean fluorescence intensity” 49.4 a.u.
`2'F-ANA at 2 5 6 8 9 11` — result for “mean fluorescence intensity”: 90.4 a.u.
`2'F-ANA at 1 4 5 6 7 8 11 13 15`: “mean fluorescence intensity” 47.7 a.u.
For `2'F-ANA at 1 7 8 14`, “mean fluorescence intensity” read 68.2 a.u.
`2'F-ANA at 9 12 13 14 15` — result for “mean fluorescence intensity”: 225 a.u.
For `2'F-ANA at 1 4 6 7 9 11 12 15`, “mean fluorescence intensity” read 157 a.u.
Under “mean fluorescence intensity”, `2'F-ANA at 2 3 5 6 9 11 15` is recorded as 68.9 a.u.
`2'F-ANA at 2 3 4 5 7 8 9 10 11 12 13 15` — result for “mean fluorescence intensity”: 55.1 a.u.
`2'F-ANA at 2 4 5 7 9 12 13 14 15`: “mean fluorescence intensity” 45 a.u.
Under “mean fluorescence intensity”, `2'F-ANA at 2 4 5 6 8 10` is recorded as 46.1 a.u.
`2'F-ANA at 2 3 5 6 7 10 13` — result for “mean fluorescence intensity”: 61.6 a.u.
`2'F-ANA at 2 3 4 6 7 9 10 12 15` — result for “mean fluorescence intensity”: 272 a.u.
Under “mean fluorescence intensity”, `2'F-ANA at 1 2 3 4 5 9 10 11 12 14 15` is recorded as 54 a.u.
Under “mean fluorescence intensity”, `2'F-ANA at 2 4 5 9 13 15` is recorded as 49.4 a.u.
`2'F-ANA at 2 4 5 6 7 8 12 13` — result for “mean fluorescence intensity”: 146 a.u.

Set 3
Target: Histone acetyltransferase KAT6A, winged helix 2, GST fusion (KAT6A, Homo sapiens, UniProt Q92794, residues 85-181)
Method: protein binding microarray
Form: double-stranded DNA, one strand shown
Matrix: in vitro
Tested at: not given
Notes: 8-mer, flanks averaged, mean of 2 arrays, mostly near background
Relative to: not given
Direction: higher = stronger binding
Residues (chain): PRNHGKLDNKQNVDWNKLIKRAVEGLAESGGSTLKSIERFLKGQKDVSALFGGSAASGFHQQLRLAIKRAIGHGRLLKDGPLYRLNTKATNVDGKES
For `CCGCCATA`, the E-score was 0.135.
`ACATTCGA` has an E-score of -0.0671.
`CATATGGG` has an E-score of -0.153.
`GCTTCTCC` has an E-score of -0.0957.
With `CGGTGCCA` the E-score was 0.137.
The E-score of `AGGCTTCA` is reported as -0.154.
`GAGGCTAA` gave an E-score of -0.0188.
For `TAGGGTCA`, the E-score was -0.0418.
The E-score of `ACAGGATA` is reported as -0.08.
For `GCCCCGTA`, the E-score was -0.171.
`AGTGTGTA` has an E-score of 0.0467.
With `ACAGGGTC` the E-score was 0.0945.
`ACGATACT` has an E-score of -0.0333.
`CGTCCCCC` has an E-score of 0.011.
`CAAATGTG` gave an E-score of 0.0454.
`CAAACCAA` gave an E-score of 0.246.
With `ACAAGGCC` the E-score was 0.0232.
With `AGAAAAGA` the E-score was -0.177.
For `CCTATATC`, the E-score was -0.0974.
With `AGACCACT` the E-score was 0.0359.
With `CCGAAGCC` the E-score was 0.0819.
`AGGTCGTA` gave an E-score of -0.159.
For `ACATCCCA`, the E-score was -0.14.
For `TGTCGCAA`, the E-score was -0.0556.
`ACGCTAGC` has an E-score of -0.101.

Set 4
Target: CCNA1, cyclin fold, Cln2 fusion (human)
Method: yeast growth competition, sequencing
Matrix: yeast
Notes: weak parent motif
Relative to: not given
Direction: higher = stronger binding
Starting sequence: ITGB3BP docking peptide (human); MPVKRSLKLDGLL; partner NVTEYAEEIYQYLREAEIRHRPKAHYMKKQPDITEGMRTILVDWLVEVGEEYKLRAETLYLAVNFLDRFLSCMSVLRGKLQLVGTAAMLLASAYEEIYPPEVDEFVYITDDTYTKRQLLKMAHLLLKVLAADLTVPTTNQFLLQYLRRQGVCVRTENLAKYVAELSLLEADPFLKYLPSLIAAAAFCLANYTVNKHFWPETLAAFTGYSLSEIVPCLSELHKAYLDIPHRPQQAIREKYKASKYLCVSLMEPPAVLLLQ
`MPVKRSLKFDGLL [L9F]` — result for “normalised enrichment score”: 0.641.
`MAVKRSLKLDGLL [P2A]`: “normalised enrichment score” 0.26.
For `MPVKRSLALDGLL [K8A]`, “normalised enrichment score” read 0.322.
Under “normalised enrichment score”, `MPVKRSLKLAGLL [D10A]` is recorded as -0.0171.
`MPVKRSLKLDGAL [L12A]` — result for “normalised enrichment score”: 0.3.
`MPVKRSAKLDGLL [L7A]`: “normalised enrichment score” 0.403.
`MPVKRSLKADGLL [L9A]` — result for “normalised enrichment score”: 0.253.

Set 5
Target: CREB5, bZIP domain (human)
Method: DHFR protein complementation
Matrix: yeast
Notes: single substitutions, most at no-binding floor
Relative to: wild-type JUN-FOS pair
Direction: higher = stronger binding
Starting sequence: JUN, bZIP domain (human); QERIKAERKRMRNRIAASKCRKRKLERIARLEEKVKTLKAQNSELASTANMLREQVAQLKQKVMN; partner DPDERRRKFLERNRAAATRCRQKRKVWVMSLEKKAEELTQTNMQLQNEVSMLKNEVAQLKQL
`E54G` gave a binding fitness of -0.405 natural log.
The binding fitness of `R30D` is reported as -0.163 natural log.
`I28C` has a binding fitness of -0.585 natural log.
`E54D` has a binding fitness of -0.496 natural log.
`E54Y` gave a binding fitness of -0.624 natural log.
The binding fitness of `V56S` is reported as -1.1 natural log.
`T37M` gave a binding fitness of 0.229 natural log.
`Q55S` gave a binding fitness of -0.761 natural log.
`Q41L` gave a binding fitness of -0.46 natural log.
For `L52S`, the binding fitness was -1.43 natural log.
With `Q55N` the binding fitness was -0.902 natural log.
With `Q41M` the binding fitness was -0.345 natural log.
For `L52F`, the binding fitness was -1.07 natural log.
With `E44N` the binding fitness was -0.56 natural log.
For `L52N`, the binding fitness was -0.854 natural log.

Set 6
Target: CRIPT, C-terminal peptide
Method: DHFR complementation, deep sequencing
Matrix: yeast
Notes: single substitutions, model-inferred values
Relative to: wild type
Direction: higher = weaker binding
Starting sequence: ERBIN, PDZ domain 1 (human); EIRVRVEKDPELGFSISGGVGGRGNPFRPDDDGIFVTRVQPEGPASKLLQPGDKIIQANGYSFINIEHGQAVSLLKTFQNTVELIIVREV; partner TKNYKQTSV
For `G19N`, “binding free energy change” read 1.35 kcal/mol.
Under “binding free energy change”, `G18M` is recorded as 1.05 kcal/mol.
Under “binding free energy change”, `S15V` is recorded as 0.0631 kcal/mol.
`I66K` — result for “binding free energy change”: 0.152 kcal/mol.
`F63K`: “binding free energy change” 1.6 kcal/mol.
Under “binding free energy change”, `G21P` is recorded as 0.293 kcal/mol.
`P26W` — result for “binding free energy change”: 0.676 kcal/mol.
Under “binding free energy change”, `E1R` is recorded as 0.0689 kcal/mol.
Under “binding free energy change”, `N59W` is recorded as 0.43 kcal/mol.
`T77C`: “binding free energy change” 0.0717 kcal/mol.
`N80M`: “binding free energy change” 0.111 kcal/mol.
Under “binding free energy change”, `G24W` is recorded as 1.91 kcal/mol.
Under “binding free energy change”, `N80C` is recorded as 0.0812 kcal/mol.
`P51L` — result for “binding free energy change”: 0.333 kcal/mol.
Under “binding free energy change”, `T81V` is recorded as -0.0467 kcal/mol.
For `S62P`, “binding free energy change” read 0.0844 kcal/mol.
`Q57S`: “binding free energy change” -0.0741 kcal/mol.
`P29M`: “binding free energy change” 0.0815 kcal/mol.
`A45H` — result for “binding free energy change”: 1.31 kcal/mol.

Mixed results
`PhoQ, residues 284 288 289 292 302 303 GNNTDL` has a fold induction of 1.15 (PhoP, residues 12 14 15 18 19 NHFIF (Escherichia coli, UniProt P23836); Sort-seq, refers to: YFP reporter; E. coli; PhoQ-PhoP variant library, added: 10 µM Mg2+; relative to: high Mg2+ state, higher = stronger signaling).

Excerpt of the above (set 1):
For `CCTTCCGA`, the E-score was 0.0285.
`ATAGAGCG` gave an E-score of 0.0387.
For `GCGGACAA`, the E-score was -0.0144.
For `GACTTGTA`, the E-score was 0.247.
With `GTGGACGA` the E-score was -0.149.
With `ACAGCGAT` the E-score was -0.162.
With `AAATTTTC` the E-score was 0.281.
`ACTCGTTA` gave an E-score of 0.118.
The E-score of `GCTGTAGA` is reported as -0.0111.
`ACGAACCA` has an E-score of 0.0784.
